Published values collected from several papers.
“And” joins repeats or separate records; there may be more than shown. ± marks the error that the study gave.
Pick1 PDZ domain: PRKCA-binding protein, PDZ domain (Pick1, Rattus norvegicus, UniProt Q9EP80)
MAPK8: Mitogen-activated protein kinase 8 (MAPK8, Homo sapiens, UniProt P45983)

By UniProt entry, the sequences of proteins in these tests, tags left out. Residues count along the entry.
UniProt Q9EP80, whole entry: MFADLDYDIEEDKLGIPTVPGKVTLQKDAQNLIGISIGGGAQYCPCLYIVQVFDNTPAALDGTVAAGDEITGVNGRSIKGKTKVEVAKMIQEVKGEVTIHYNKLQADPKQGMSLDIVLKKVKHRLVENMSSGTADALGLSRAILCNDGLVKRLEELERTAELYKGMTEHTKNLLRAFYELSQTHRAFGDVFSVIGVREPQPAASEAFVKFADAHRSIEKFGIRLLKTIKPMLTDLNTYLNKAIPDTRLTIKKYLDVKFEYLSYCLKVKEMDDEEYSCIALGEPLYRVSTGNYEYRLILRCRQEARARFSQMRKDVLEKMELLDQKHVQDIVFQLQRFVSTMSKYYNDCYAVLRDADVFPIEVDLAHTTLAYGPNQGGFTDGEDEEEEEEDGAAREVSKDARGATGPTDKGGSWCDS
UniProt P45983, whole entry: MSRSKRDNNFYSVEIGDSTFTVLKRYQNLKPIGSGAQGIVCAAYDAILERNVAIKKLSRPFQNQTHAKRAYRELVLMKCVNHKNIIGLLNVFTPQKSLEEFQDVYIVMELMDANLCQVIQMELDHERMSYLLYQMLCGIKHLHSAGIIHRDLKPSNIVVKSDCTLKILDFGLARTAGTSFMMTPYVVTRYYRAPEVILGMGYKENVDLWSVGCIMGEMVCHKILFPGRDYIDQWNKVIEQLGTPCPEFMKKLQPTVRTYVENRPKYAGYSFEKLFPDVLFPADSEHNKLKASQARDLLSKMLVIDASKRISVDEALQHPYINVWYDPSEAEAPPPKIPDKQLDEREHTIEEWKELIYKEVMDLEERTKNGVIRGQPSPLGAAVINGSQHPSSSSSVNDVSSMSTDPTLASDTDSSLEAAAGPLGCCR
UniProt Q04609, whole entry: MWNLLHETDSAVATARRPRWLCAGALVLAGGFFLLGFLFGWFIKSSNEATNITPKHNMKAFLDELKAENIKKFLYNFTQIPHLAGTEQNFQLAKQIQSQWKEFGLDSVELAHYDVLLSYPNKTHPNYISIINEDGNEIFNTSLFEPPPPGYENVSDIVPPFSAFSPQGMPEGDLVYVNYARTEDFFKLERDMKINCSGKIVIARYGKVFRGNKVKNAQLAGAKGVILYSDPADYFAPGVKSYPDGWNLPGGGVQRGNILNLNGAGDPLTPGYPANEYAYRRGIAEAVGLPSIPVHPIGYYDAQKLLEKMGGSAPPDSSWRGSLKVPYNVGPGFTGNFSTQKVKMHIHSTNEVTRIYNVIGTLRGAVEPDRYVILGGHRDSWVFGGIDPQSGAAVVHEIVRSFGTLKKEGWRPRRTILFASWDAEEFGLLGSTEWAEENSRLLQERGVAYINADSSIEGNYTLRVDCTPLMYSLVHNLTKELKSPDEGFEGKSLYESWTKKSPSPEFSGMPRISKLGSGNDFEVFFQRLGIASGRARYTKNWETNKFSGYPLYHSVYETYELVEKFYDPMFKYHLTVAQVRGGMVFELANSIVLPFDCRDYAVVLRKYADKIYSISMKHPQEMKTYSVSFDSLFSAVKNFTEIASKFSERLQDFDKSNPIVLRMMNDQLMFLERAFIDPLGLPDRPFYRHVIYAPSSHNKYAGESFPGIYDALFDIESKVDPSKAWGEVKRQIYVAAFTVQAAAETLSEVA
UniProt Q9R0C9, whole entry: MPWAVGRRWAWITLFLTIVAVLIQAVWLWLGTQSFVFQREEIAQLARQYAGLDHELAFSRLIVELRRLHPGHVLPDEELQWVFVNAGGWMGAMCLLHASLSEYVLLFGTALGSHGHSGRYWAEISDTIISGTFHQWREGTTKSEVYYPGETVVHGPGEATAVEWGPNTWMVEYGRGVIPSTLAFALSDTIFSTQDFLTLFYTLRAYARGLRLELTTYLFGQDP
UniProt Q05655, whole entry: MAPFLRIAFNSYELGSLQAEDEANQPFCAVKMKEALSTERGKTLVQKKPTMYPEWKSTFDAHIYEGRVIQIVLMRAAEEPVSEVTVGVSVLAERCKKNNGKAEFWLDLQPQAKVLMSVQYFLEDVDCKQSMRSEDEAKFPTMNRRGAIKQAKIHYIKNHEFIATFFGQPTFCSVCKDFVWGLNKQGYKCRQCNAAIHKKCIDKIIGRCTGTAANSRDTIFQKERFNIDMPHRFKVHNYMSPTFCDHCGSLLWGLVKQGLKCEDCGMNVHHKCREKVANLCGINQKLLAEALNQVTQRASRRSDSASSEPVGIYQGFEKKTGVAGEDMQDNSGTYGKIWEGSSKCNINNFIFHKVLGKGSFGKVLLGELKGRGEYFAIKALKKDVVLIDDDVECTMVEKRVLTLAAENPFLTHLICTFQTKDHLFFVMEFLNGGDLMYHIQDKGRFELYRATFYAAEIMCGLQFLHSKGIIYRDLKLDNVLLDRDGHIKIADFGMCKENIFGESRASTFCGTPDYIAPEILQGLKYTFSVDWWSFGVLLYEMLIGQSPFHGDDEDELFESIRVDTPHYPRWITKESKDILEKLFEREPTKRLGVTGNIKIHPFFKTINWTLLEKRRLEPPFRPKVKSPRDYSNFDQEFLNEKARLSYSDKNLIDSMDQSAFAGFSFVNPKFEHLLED
UniProt Q16539, whole entry: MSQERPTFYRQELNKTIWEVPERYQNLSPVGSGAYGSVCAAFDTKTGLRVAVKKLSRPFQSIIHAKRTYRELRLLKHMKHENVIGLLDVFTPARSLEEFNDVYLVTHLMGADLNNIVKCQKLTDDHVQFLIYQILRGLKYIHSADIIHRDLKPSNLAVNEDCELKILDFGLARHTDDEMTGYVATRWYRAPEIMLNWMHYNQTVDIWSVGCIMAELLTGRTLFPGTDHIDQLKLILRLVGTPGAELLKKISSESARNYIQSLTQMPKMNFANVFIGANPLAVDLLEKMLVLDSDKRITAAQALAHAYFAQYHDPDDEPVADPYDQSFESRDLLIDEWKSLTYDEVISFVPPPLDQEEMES
UniProt Q9NRA0, whole entry: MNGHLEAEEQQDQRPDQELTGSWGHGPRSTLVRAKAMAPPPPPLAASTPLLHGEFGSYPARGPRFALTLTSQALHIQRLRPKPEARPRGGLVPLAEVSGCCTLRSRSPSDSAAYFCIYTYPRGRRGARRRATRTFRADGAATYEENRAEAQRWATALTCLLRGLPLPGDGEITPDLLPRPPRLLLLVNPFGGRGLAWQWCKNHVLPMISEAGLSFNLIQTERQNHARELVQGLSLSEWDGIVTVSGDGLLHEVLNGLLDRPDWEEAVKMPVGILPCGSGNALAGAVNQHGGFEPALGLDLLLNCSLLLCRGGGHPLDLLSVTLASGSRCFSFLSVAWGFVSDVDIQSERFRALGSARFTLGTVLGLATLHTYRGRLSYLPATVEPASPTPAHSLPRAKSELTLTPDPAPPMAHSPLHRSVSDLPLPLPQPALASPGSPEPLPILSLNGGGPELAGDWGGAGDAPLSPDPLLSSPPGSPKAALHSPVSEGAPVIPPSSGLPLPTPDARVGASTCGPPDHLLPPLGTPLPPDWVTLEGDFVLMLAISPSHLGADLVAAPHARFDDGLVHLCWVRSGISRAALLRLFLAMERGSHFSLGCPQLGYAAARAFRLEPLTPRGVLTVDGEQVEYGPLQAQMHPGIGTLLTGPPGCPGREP
UniProt P28221, whole entry: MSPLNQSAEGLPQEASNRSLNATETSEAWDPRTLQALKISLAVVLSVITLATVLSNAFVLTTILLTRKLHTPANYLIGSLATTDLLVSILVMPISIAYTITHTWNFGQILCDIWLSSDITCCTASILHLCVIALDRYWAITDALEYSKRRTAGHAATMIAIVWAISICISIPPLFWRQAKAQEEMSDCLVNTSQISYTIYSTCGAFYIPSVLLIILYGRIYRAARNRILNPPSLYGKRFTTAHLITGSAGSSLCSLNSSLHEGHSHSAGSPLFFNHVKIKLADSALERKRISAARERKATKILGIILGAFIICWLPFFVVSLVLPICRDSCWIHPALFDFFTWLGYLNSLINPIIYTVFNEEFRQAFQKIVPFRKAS
UniProt P42264, 32-919 limits assumed: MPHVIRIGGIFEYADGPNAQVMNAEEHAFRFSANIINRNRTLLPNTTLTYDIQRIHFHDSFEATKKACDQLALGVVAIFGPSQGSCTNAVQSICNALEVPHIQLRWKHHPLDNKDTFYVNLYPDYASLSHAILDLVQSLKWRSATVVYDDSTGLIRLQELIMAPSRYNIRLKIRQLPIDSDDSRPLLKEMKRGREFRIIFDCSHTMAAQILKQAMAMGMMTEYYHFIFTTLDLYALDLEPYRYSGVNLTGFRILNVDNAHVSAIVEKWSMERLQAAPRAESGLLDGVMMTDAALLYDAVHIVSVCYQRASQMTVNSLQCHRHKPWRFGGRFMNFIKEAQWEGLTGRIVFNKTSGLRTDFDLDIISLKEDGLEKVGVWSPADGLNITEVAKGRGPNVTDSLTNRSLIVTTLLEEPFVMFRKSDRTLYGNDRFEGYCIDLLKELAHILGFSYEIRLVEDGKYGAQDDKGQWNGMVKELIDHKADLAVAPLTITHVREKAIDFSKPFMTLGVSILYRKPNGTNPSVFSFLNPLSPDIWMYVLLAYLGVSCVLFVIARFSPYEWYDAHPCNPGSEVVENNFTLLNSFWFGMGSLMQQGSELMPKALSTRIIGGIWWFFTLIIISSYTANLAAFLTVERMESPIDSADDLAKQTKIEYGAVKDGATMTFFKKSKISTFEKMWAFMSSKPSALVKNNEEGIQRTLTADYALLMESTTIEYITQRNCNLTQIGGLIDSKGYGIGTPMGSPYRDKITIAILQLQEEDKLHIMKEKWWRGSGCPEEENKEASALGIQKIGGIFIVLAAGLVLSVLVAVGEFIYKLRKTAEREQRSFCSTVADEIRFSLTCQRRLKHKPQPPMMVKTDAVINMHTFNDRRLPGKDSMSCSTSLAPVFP
UniProt P13569, whole entry: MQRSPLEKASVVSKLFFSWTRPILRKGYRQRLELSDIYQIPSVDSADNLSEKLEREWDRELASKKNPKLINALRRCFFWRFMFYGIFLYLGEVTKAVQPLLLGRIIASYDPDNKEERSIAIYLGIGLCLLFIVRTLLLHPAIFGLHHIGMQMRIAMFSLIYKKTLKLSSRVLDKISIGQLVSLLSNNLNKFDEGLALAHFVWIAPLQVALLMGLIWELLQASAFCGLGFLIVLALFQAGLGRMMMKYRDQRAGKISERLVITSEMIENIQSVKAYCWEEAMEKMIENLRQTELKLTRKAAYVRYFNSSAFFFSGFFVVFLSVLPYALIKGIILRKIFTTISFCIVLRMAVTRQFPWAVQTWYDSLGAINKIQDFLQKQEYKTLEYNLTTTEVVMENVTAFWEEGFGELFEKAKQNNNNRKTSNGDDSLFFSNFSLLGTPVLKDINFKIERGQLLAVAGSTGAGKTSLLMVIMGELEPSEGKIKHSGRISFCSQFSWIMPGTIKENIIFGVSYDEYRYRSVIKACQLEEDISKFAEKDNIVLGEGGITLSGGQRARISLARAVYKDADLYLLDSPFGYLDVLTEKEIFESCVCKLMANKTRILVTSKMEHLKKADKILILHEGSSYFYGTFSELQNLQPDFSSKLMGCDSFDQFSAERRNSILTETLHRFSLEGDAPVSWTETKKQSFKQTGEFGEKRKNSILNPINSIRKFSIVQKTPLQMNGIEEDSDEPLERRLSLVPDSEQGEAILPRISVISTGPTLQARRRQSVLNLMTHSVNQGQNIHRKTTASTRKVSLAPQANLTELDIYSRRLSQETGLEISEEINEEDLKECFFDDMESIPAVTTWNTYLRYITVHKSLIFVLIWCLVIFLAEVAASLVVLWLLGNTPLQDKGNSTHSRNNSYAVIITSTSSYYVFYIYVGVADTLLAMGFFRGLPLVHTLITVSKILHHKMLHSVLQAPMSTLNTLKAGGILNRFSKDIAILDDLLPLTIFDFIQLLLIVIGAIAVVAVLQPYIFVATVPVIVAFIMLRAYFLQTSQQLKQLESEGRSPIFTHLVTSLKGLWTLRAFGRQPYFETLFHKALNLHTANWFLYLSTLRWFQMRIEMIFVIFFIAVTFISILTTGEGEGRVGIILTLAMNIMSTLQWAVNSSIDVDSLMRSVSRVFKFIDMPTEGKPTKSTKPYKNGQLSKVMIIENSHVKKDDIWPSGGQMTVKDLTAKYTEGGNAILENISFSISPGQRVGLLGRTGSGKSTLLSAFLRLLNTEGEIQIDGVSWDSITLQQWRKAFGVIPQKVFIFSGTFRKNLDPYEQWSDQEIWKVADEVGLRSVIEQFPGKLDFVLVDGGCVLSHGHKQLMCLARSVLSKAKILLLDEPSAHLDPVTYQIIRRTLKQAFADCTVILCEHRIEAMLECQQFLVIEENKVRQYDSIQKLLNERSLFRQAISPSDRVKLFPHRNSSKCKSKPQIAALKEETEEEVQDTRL
UniProt O14976, 12-347 limits assumed: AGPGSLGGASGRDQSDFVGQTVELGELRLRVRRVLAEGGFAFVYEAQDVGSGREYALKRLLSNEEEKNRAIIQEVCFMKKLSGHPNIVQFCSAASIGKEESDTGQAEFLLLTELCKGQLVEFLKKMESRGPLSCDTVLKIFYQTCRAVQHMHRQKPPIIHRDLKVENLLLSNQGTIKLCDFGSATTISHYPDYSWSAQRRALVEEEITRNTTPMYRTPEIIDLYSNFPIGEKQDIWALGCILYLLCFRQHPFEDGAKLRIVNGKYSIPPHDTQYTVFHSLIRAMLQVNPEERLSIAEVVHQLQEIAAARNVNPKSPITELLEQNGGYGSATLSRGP

| Compound | target | assay | system | setting | Ki |
| --- | --- | --- | --- | --- | --- |
| CCCCN(C(=O)OCC)C(=O)/C(C#N)=C/c1ccc(Cl)c(Cl)c1 | Pick1 PDZ domain | binding, fluorescence polarization |  | together with: labelled hDAT C-terminal peptide | 19 ± 4.7 µM |
| CC1(C)C(=CC=CC=CC=CC2=[N+](CCCCS(=O)(=O)[O-])c3ccc4ccccc4c3C2(C)C)N(CCCCCC(=O)NCCCCC(NC(=O)CCCCCCC(=O)NCCCC[C@H](NC(=O)N[C@@H](CCC(=O)O)C(=O)O)C(=O)O)C(=O)O)c2ccc3ccccc3c21 (stereo partly shown) | Glutamate carboxypeptidase 2 (FOLH1, Homo sapiens, UniProt Q04609) | enzyme activity, inhibitor |  | compound in DMSO, together with: [3H]NAAG 30 nM | 0.0002 ± 5e-06 µM |
| FC1CCN(c2ccc3sc(-c4cccnc4)cc3n2)C1 (stereo not shown) | Alpha-synuclein, PD brain aggregates (SNCA, Homo sapiens, UniProt P37840) | binding | Parkinson's disease brain homogenate | together with: [3H]asyn-44 1 nM | 0.0296 µM |
| COC(=O)C1(C)C=C(C(=O)NCc2ccccc2)C(=O)CC1 (stereo not shown) | MAPK8 | D-peptide displacement, fluorescence polarization |  |  | 97.4 ± 24.1 µM |
| C/C(=N\OCCN1CCCCCC1)c1ccc(C(F)(F)F)cc1 | Sigma non-opioid intracellular receptor 1 (Sigmar1, Rattus norvegicus, UniProt Q9R0C9) | radioligand binding | rat |  | 0.1568 ± 0.0012 µM |
| CCCCCCCCC(CCCCCCCC=CCCCCCCCC(CCCCCCCC)C(=O)OCC1(CO)CC(=C(C)C)C(=O)O1)C(=O)OCC1(CO)CC(=C(C)C)C(=O)O1 (racemic) | Protein kinase C delta type (PRKCD, Homo sapiens, UniProt Q05655) | binding, [3H]PDBu competition |  | together with: phosphatidylserine 100 µg/mL | 0.0271 µM and 0.0272 µM |
| C#CCCCOC(=O)[C@]1(C)C=C(C(=O)OC(C)(C)C)C(=O)CC1 | Mitogen-activated protein kinase 14 (MAPK14, Homo sapiens, UniProt Q16539) | D-peptide displacement, fluorescence polarization |  |  | 0.9 ± 0.2 µM |
| CCOC(=O)NC(=O)/C(C#N)=C/c1ccccc1 | Pick1 PDZ domain | binding, fluorescence polarization |  | together with: labelled hDAT C-terminal peptide | 84 ± 2.2 µM |
| CCCCCCCCCCCCc1ccc(C(=O)NC2(C(=N)N)CC2)cc1 | Sphingosine kinase 2 (SPHK2, Homo sapiens, UniProt Q9NRA0) | inhibitor, FlashPlate |  |  | 0.8 µM |
| NC(N)=NC(=O)N1CCc2c(F)ccc(-c3c(F)cc(F)cc3F)c2C1 | 5-hydroxytryptamine receptor 1D (HTR1D, Homo sapiens, UniProt P28221) | radioligand binding |  |  | 0.05 µM |
| C[C@H](NC(=O)c1cc(C(=O)O)cc([C@H]2CCN[C@@H]2C(=O)O)c1)C(=O)O | NMDA receptor (rat) | binding, radioligand binding | rat cortical synaptosomes | together with: [3H]CGP39653 | 0.87 µM |
| C=C1CC2/C=C/C(C)(C)CC=C3CC(CO)(COC(=O)CC(O)CC4CC(=C)CC(CC(C1)O2)O4)OC3=O (stereo not shown) | Protein kinase C alpha type (PRKCA, Homo sapiens, UniProt P17252) |  |  |  | 0.363 ± 0.042 µM |
| O=C(O)CNC(=O)c1cc(C(=O)O)cc([C@H]2CCN[C@@H]2C(=O)O)c1 | Glutamate receptor ionotropic, kainate 3 (Rattus norvegicus, UniProt P42264) | binding, radioligand binding | Sf9 membranes | homomeric receptor, together with: [3H]kainate | 22.3 ± 6 µM |
| COc1c(Br)cc(/C=N/NC(=O)CNc2ccc(Cl)cc2)c(O)c1Br | Cystic fibrosis transmembrane conductance regulator (CFTR, Homo sapiens, UniProt P13569) | apical chloride current, inhibitor | FRT cells expressing CFTR | basolateral membrane permeabilised | 25 to 50 µM |
| COC(=O)C1(C)C=C(C(=O)NC(C)(C)C)C(=O)CC1 (stereo not shown) | MAPK8 | D-peptide displacement, fluorescence polarization |  |  | > 200 µM |
| COc1cc(Nc2ccnc3cc(-c4ccncc4)ccc23)cc(OC)c1OC | Cyclin-G-associated kinase (GAK, Homo sapiens, UniProt O14976) |  |  |  | 0.0015 µM |
